Measured values gathered from unrelated publications.
Protocols differ between the studies behind these lines. ± gives the spread as reported.

COC(=O)[C@H](N)CSSC[C@@H](N)C(=O)OC — half-life (minipig plasma; 100 µM, 37 °C): 2.2 min
CC(C)C[C@H](NC(=O)[C@H](Cc1ccc(O)cc1)NC(=O)[C@H](CCCCN)NC(=O)[C@H](CO)NC(=O)[C@H](CCCNC(=N)N)NC(=O)[C@H](CCC(N)=O)NC(=O)[C@H](CO)NC(=O)[C@@H]1CCCN1C(=O)[C@H](CCCNC(=N)N)NC(=O)[C@H](CCCCN)NC(=O)[C@H](CCC(N)=O)NC(=O)c1ccc2c(c1)C(=O)OC21c2ccc(O)cc2Oc2cc(O)ccc21)C(N)=O — half-life (CE-LIF; HeLa cytosolic lysate; 37 °C): 2 ± 0.2 min
Cc1cccc(CNC(=O)c2cn(CCNC(=O)c3ccccc3Sc3c([N+](=O)[O-])ncn3C)c3cc4c(cc3c2=O)OCO4)n1 — half-life (blood stability, LC-MS/MS; CD-1 mouse whole blood; 1 µM, 37 °C): 279 min
C=C1CN2CCC[C@@]2(COc2nc(N3CCN(C(=O)/C=C/c4cc(CN(C)C)c(C)cn4)C[C@@H]3C)c3cc(Cl)c(-c4nc(N)cc(C)c4C(F)(F)F)c(F)c3n2)C1 — half-life (1 µM, pH 7.4, together with: 5 mM cysteine): > 540 min
O=C1CC[C@H](N2Cc3cc(N4CCN(CC5CCN(c6ccc([C@@H]7c8ccc(O)cc8CC[C@@H]7c7ccccc7)cc6)CC5)CC4)ccc3C2=O)C(=O)N1 — half-life (SD rat liver microsomes; 1 µM, pH 7.4): 47.8 min
CC(C)C[C@@H](NC(=O)[C@H](Cc1ccccc1)NC(=O)CNC(=O)[C@@H](C)NC(=O)[C@H](Cc1ccc(O)cc1)NC(=O)[C@H](C)NC(=O)c1ccc[n+](C)c1)C(=O)O — half-life (HPLC-UV; 20% rat brain homogenate; pH 7.4): 963 min
C[C@H](NC(=O)/C(C#N)=C/c1cccc(Br)n1)c1ccccc1 — half-life (LC-MS/MS; patients, plasma; oral, 2 mg/kg, cycle 1 day 8): 66 min
O=C1Nc2c(C(F)(F)F)cccc2[C@@]1(c1ccc(O)cc1)N1CCCC(F)(F)C1 — half-life (simulated gastric fluid with pepsin; 100 µM, pH 1.2, 37 °C): 10 to 77 min
CC(C)[N+](C)(CCOC(=O)C1c2ccccc2Oc2ccccc21)C(C)C — half-life (CD-1 mouse whole blood; 5 µM): 57 min
CN[C@H](CC(C)C)C(=O)N[C@H]1C(=O)N[C@@H](CC(N)=O)C(=O)N[C@H]2C(=O)N[C@H]3C(=O)N[C@H](C(=O)N[C@H](C(=O)O)c4cc(O)cc(O)c4-c4cc3ccc4O)[C@H](O)c3ccc(c(Cl)c3)Oc3cc2cc(c3O[C@@H]2O[C@H](CO)[C@@H](O)[C@H](O)[C@H]2O[C@H]2C[C@](C)(N)[C@H](O)[C@H](C)O2)Oc2ccc(cc2Cl)[C@H]1O — half-life (guinea pig, serum; intraperitoneal, 15 mg/kg, single dose): 169 min
OCc1ccc(-c2nn(Cc3ccccc3)c3ccccc23)o1 — half-life (human liver microsomes; together with: NADH): 7.2 min
CC(C)NCC(O)COc1cccc2ccccc12 (centres unmarked) — half-life (substrate depletion; phenobarbital/β-naphthoflavone-induced rat liver microsomes; 1 µM, pH 7.4, 37 °C, together with: NADPH): 3.27 min
C[C@H](N)C(=O)N[C@@H](C[SeH])C(=O)N1CCC[C@H]1C(=O)N[C@@H](CO)C(=O)N[C@@H](CC(=O)O)C(=O)N[C@@H](Cc1ccc(O)cc1)C(=O)N[C@@H](C[SeH])C(=O)N[C@@H](CCCCN)C(=O)N[C@@H](CCCNC(=N)N)C(=O)N[C@@H](CCCCN)C(=O)NCC(=O)N[C@@H](C[SeH])C(=O)NCC(N)=O — half-life (HRMS; Tris-HCl buffer with TCEP, air; 50 µM, pH 7.5, 4 °C, together with: EDTA 100 equiv): 7920 min
Oc1ccc([C@@H](O)c2cc(-c3ncnc4cc(N5CCOCC5)ccc34)c(F)cc2Cl)nn1 — half-life (geometric mean; healthy volunteers, plasma; oral, 100 mg, fasted oral suspension): 228 min
N#Cc1ccc(Nc2nc(N)cc(Oc3c(F)cc(-c4ccc(C#N)cc4)cc3F)n2)cc1 — half-life (monkey plasma, diluted in PBS; 1 µM): 972 min
Cc1c(C)n(Cc2cccc(OC(C)(C)C(=O)O)c2)c2ccc(C(=O)N[C@@H](C)c3ccc(C(C)(C)C)cc3)cc12 — half-life (human liver microsomes; 1 µM, together with: microsomes 1 mg/mL): > 60 min
O=c1c(-c2ccc(O)cc2)coc2cc(O)cc(O)c12 — half-life (substrate depletion; phenobarbital/β-naphthoflavone-induced rat liver microsomes; 1 µM, pH 7.4, 37 °C, together with: NADPH): 4.65 min
O=C(Cc1ccc2ccccc2c1)Nc1cc(C2CCC2)[nH]n1 — half-life (mouse liver S9; 1 µM): 28.1 min
N#CCNC(=O)c1ccc(-c2ccnc(Nc3ccc(N4CCOCC4)cc3)n2)cc1 — half-life (healthy volunteers, plasma; oral, 200 mg single dose, day 1, given alone, fasted): 385 min
CCN1CCN(Cc2ccc(Nc3nc4ccc(Oc5ccnc(NC(=O)C6CCN(C)CC6)c5)cc4n3C)cc2C(F)(F)F)CC1 — half-life (plasma): ~300 min
CNC(=O)c1ccc(N2C(=S)N(c3ccc(C#N)c(C(F)(F)F)c3)C(=O)C2(C)C)cc1F — half-life (oral, 5 mg/kg): 631 ± 102 min
CC(C)(C)c1nc(-c2cccc(N(Cc3cc(C(=O)[O-])ccc3OP(=O)([O-])[O-])S(=O)(=O)c3c(F)cccc3F)c2F)c(-c2ccnc(N)n2)s1.[Na+].[Na+].[Na+] — half-life (HBSS; 10 µM, 2 h incubation, pH 6.5): > 120 min
O=Cc1cc2ccccc2cc1C=O — half-life (reactivity with N-α-acetyl-lysine, HPLC-MS; BBS buffer with acetonitrile; 1 mM, pH 10.2): < 1 min
COc1ccc2[nH]c([S+]([O-])Cc3ncc(C)c(OC)c3C)nc2c1 (centres unmarked) — half-life (healthy Chinese volunteers, plasma; oral, 20 mg, enteric-coated tablets, all CYP2C19 genotypes): 79.8 ± 56.4 min
N#CC[C@H](C1CCCC1)n1cc(-c2ncnc3[nH]ccc23)cn1 — half-life (children, plasma; oral, first dose): 138 ± 54 min
COc1ccc([C@@H](O)c2cc(-c3ncnc4cc(N5CCOCC5)ccc34)c(F)cc2Cl)nn1 — half-life (geometric mean; healthy volunteers, plasma; oral, 100 mg, fasted tablet): 324 min
Nc1cccc2c1CN(C1CCC(=O)NC1=O)C2=O (centres unmarked) — half-life (metabolic stability; liver microsomes; 2 µM): > 360 min
Cc1ccc2c(c1)C(=O)[C@]1(O)CCN(c3ccc4nc(C)ccc4c3)C1=N2.Cl — half-life (plasma; oral, 10 mg/kg): 618 min
CCCCC[C@H](O)CC[C@@H]1[C@H]2Cc3cccc(OCC(=O)O)c3C[C@H]2C[C@H]1O — half-life (LC-MS/MS; Japanese PAH patients, female, plasma; inhaled, 54 µg, geometric mean): 44.4 min
CC1=NN(/C(=N\c2ccccc2)Nc2nnc(C)s2)C(c2ccc(C)cc2)S1 (centres unmarked) — half-life (plasma stability; human plasma): 5.3 min
CN(C)c1ccc(Nc2nc(-c3ccncc3)nc3c2CC(N)CC3)cc1 (centres unmarked) — half-life (mouse liver microsomes; 4.6 µM, pH 7.4): > 60 min
COCCOc1cnc2ccn([C@H](C)c3nnc4c(F)cc(-c5cnn(C)c5)cn34)c(=O)c2c1 — half-life (patients, plasma; oral, 100 mg once daily, day 1): 402 min
CC(=O)O[C@H]1C(=O)[C@@]2(C)[C@H]([C@H](OC(=O)c3ccccc3)[C@]3(O)C[C@H](OC(=O)[C@H](OC(=O)OCc4cc(C(=O)O)ccc4OP(=O)(O)O)[C@@H](NC(=O)c4ccccc4)c4ccccc4)C(C)=C1C3(C)C)[C@]1(OC(C)=O)CO[C@@H]1C[C@@H]2O — half-life (HBSS; 10 µM, 2 h incubation, pH 6.5): > 120 min
Ic1nccs1 — half-life (PBS with glutathione, 5% acetonitrile; pH 7.4): 54 min
CCCCCCCCCCCCCCCC(=O)N[C@@H](CCC(=O)NCCCC[C@@H]1NC(=O)[C@H]([C@@H](C)CC)NC(=O)[C@@H](NC(=O)[C@@H]2CCCN2C(=O)[C@H](Cc2ccccc2)NC(=O)[C@H](Cc2c[nH]cn2)NC(=O)[C@@H](NC(=O)[C@H](CC(=O)O)NC(=O)CC(C)C)[C@@H](C)O)CSSC[C@@H](C(=O)N[C@@H](CCCCN)C(N)=O)NC(=O)CNC(=O)[C@H](CCCCN)NC(=O)[C@H](CO)NC(=O)[C@H](CCCNC(=N)N)NC(=O)[C@@H]2CCCN2C(=O)[C@H](CCC(=O)O)NC(=O)[C@H](Cc2ccccc2)NC1=O)C(=O)O — half-life (healthy volunteers, plasma; subcutaneous, 45 mg single, lyophilised formulation): 1980 ± 1100 min

For quick reference, copied from above:
O=C1CC[C@H](N2Cc3cc(N4CCN(CC5CCN(c6ccc([C@@H]7c8ccc(O)cc8CC[C@@H]7c7ccccc7)cc6)CC5)CC4)ccc3C2=O)C(=O)N1 — half-life (SD rat liver microsomes; 1 µM, pH 7.4): 47.8 min
CC(C)C[C@@H](NC(=O)[C@H](Cc1ccccc1)NC(=O)CNC(=O)[C@@H](C)NC(=O)[C@H](Cc1ccc(O)cc1)NC(=O)[C@H](C)NC(=O)c1ccc[n+](C)c1)C(=O)O — half-life (HPLC-UV; 20% rat brain homogenate; pH 7.4): 963 min
C[C@H](NC(=O)/C(C#N)=C/c1cccc(Br)n1)c1ccccc1 — half-life (LC-MS/MS; patients, plasma; oral, 2 mg/kg, cycle 1 day 8): 66 min
O=C1Nc2c(C(F)(F)F)cccc2[C@@]1(c1ccc(O)cc1)N1CCCC(F)(F)C1 — half-life (simulated gastric fluid with pepsin; 100 µM, pH 1.2, 37 °C): 10 to 77 min
CC(C)[N+](C)(CCOC(=O)C1c2ccccc2Oc2ccccc21)C(C)C — half-life (CD-1 mouse whole blood; 5 µM): 57 min
